Results gathered from unrelated publications.
Each line is one published result; not all experiments were run side by side. “And” joins repeats or separate records; there may be more than shown. ± gives the spread as reported.
lasR: Transcriptional activator protein LasR (lasR, Pseudomonas aeruginosa, UniProt P25084)
Uncharacterized hydrolase SAUSA300_2518: Uncharacterized hydrolase SAUSA300_2518 (Staphylococcus aureus, UniProt Q2FDS6)
KEAP1: Kelch-like ECH-associated protein 1 (KEAP1, Homo sapiens, UniProt Q14145)
UniProt Q14145, sequence (whole entry, looked up): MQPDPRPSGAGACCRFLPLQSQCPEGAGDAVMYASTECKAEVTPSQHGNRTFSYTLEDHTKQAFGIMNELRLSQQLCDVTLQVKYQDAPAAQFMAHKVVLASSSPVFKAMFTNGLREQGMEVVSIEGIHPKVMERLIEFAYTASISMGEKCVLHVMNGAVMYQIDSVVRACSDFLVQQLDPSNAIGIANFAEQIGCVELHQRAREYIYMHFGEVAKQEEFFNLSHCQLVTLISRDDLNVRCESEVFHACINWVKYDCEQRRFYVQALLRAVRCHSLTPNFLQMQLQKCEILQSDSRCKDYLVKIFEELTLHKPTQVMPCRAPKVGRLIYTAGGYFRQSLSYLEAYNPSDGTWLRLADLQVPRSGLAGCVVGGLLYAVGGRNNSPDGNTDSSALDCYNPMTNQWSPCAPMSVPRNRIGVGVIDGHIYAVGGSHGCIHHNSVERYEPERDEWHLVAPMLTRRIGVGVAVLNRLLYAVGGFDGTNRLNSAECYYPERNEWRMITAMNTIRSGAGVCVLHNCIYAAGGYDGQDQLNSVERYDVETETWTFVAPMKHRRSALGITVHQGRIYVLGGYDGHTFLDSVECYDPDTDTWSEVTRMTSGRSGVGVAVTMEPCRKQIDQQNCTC
sdiA: Regulatory protein SdiA (sdiA, Escherichia coli, UniProt P07026)
UniProt P07026, sequence (whole entry, looked up): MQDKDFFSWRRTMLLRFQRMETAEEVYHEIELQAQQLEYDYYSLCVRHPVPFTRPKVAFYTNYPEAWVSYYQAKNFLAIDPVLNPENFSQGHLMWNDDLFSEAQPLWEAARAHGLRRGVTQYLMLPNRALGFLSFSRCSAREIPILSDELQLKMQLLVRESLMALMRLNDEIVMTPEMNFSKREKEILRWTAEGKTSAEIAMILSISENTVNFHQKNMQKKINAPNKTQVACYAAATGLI
Oprm1: Mu-type opioid receptor (Oprm1, Rattus norvegicus, UniProt P33535)
UniProt P33535, sequence (whole entry, looked up): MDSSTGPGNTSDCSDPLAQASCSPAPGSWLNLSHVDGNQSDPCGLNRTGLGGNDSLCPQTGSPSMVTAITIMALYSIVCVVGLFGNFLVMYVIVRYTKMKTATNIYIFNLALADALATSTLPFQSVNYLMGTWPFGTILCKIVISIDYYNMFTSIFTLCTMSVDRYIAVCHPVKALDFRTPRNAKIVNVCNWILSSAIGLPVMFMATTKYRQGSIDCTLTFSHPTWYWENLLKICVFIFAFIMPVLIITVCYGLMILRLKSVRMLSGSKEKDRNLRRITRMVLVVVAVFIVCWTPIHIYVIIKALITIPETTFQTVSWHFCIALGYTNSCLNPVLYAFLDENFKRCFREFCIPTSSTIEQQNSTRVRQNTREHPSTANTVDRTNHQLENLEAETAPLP
MAPK3: Mitogen-activated protein kinase 3 (MAPK3, Homo sapiens, UniProt P27361)
UniProt P27361, sequence (whole entry, looked up): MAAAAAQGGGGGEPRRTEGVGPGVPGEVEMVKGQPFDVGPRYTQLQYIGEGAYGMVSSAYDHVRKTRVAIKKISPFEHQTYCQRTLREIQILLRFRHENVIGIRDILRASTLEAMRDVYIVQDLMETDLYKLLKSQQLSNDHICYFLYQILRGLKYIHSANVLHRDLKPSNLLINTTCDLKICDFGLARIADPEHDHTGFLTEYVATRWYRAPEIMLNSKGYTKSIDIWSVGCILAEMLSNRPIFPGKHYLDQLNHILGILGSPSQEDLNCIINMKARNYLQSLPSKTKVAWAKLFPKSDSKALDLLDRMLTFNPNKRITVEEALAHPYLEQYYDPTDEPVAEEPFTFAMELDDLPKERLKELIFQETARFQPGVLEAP
UniProt Q9Y2J8, sequence (whole entry, looked up): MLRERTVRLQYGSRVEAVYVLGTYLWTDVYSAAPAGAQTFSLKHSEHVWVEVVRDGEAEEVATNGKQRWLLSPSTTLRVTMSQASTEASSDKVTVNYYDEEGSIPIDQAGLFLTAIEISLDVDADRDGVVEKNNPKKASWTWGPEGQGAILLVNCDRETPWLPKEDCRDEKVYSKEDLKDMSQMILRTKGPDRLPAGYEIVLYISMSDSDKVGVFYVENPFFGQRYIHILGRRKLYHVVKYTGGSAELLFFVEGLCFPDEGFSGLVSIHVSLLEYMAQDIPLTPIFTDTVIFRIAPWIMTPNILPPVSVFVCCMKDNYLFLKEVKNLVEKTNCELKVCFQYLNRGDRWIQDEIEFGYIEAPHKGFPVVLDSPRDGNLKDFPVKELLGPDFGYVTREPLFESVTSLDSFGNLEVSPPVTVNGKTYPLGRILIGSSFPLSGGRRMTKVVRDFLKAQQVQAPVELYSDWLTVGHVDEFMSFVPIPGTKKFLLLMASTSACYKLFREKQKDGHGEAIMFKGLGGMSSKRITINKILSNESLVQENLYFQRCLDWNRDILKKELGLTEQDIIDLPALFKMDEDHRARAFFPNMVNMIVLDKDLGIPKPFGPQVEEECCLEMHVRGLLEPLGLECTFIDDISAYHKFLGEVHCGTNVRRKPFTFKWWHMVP
UniProt Q3UUQ7, sequence (whole entry, looked up): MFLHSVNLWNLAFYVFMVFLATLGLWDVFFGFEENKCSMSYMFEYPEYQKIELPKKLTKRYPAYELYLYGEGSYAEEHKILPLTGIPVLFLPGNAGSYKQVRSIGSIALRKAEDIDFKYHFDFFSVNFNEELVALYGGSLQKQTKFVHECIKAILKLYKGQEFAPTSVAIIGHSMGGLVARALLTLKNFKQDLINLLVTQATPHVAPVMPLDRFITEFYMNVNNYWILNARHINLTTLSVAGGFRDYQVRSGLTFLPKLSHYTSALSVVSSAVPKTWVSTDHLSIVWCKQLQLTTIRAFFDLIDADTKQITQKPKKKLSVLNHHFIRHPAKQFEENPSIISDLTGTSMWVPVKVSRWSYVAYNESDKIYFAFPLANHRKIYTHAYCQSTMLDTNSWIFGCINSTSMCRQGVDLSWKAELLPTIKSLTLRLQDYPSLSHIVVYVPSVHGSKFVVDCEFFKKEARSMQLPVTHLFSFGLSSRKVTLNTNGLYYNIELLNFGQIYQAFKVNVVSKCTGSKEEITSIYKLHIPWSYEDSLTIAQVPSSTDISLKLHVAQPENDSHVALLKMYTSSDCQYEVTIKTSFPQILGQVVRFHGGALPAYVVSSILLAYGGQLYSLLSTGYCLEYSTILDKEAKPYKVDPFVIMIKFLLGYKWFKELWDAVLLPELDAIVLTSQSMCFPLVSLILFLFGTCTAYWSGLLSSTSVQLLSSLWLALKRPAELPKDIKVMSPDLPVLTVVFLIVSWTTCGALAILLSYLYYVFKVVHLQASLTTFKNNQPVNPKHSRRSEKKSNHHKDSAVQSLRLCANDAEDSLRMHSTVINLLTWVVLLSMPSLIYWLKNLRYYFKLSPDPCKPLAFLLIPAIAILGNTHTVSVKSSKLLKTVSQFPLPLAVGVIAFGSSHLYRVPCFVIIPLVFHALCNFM
UniProt Q9H2X3, sequence (whole entry, unmodified, looked up): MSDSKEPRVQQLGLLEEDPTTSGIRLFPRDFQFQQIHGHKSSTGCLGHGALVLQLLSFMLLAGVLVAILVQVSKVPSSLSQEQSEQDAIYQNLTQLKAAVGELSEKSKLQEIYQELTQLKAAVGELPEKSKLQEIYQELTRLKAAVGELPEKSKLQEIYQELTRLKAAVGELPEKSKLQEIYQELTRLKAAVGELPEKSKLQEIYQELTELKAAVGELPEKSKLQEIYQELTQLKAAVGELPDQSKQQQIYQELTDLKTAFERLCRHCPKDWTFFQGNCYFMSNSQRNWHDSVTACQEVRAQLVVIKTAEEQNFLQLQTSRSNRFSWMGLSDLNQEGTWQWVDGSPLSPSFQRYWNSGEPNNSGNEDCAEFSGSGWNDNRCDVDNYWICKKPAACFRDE
UniProt Q9ET22, sequence (whole entry, looked up): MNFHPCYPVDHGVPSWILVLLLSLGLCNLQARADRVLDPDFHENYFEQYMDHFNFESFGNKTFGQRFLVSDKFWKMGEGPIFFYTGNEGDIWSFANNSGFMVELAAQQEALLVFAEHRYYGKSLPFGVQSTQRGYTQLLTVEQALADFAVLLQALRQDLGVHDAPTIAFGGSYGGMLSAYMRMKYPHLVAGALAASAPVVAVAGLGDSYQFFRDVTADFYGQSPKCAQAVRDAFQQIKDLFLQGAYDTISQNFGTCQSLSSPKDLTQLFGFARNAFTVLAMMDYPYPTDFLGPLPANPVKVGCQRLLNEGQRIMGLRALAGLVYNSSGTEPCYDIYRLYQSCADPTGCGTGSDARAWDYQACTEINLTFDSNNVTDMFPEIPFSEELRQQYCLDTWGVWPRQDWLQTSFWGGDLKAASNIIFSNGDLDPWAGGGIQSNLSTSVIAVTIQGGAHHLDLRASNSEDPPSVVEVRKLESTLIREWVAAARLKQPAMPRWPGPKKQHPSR
UniProt P21127, sequence (whole entry, looked up): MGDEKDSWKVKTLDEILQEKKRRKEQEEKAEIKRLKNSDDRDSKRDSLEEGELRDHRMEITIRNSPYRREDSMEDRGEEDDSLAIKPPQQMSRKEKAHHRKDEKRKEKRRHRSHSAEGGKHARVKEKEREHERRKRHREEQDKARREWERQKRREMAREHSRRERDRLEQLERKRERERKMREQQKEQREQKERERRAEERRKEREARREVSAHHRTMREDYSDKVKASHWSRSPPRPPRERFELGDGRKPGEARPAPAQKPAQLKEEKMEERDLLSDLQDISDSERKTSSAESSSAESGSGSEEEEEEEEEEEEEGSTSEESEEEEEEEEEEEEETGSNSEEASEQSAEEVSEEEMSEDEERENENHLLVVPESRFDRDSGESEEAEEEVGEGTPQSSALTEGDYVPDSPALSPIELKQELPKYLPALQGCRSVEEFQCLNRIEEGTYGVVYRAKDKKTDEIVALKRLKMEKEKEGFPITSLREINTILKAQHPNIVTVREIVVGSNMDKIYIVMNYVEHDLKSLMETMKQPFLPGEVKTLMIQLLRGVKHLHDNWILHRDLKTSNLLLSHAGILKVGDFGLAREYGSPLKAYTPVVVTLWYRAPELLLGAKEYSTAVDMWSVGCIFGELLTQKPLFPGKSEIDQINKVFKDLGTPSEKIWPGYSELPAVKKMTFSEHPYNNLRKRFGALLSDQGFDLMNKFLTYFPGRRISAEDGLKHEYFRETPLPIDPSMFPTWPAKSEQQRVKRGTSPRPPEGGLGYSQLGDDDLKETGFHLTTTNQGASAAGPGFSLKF

| SMILES | target | test | system | setting | how to read | endpoint | result |
| --- | --- | --- | --- | --- | --- | --- | --- |
| CCCCCCCCCCCCn1nnc(CC(=O)O)n1 | lasR | plasI-LVAgfp reporter, antagonist | – | – | baseline: pump-active over pump-mutant | IC50 ratio | 23 |
| O=C(N[C@@H]1c2ccccc2C[C@H]1N1CCCC1)c1ccc(-c2ccnc3[nH]ccc23)nc1 | NUAK family SNF1-like kinase 2 (NUAK2, Homo sapiens, UniProt Q9H093) | binding, competition with immobilised ligand | – | 3 µM | – | remaining binding | 2.1% |
| O=C(Nc1ccncc1)c1ccccc1OS(=O)(=O)F | Uncharacterized hydrolase SAUSA300_2518 | enzyme activity, inhibitor, fluorogenic substrate | – | 50 µM | – | remaining activity | 36.6% and 36.2% and 36% |
| N=C(N)NCc1cn([C@@H]2[C@@H](OCCCl)O[C@H](CO)[C@@H](O)[C@@H]2O)nn1 | C-type lectin domain family 4 member M, extracellular domain (CLEC4M, Homo sapiens, UniProt Q9H2X3) | isothermal titration calorimetry | – | – | – | ΔH | -48.2 kJ/mol and -48.8 kJ/mol |
| CC(C)CC(O)(CC(C)C)c1cn(C(=O)N2CCCC2)nn1 | Dipeptidyl peptidase 2 (Dpp7, Mus musculus, UniProt Q9ET22) | probe labelling, inhibitor, refers to: Dpp7 | mouse, brain | i.p., 0.8 mg/kg, 4 h, protein level | baseline: treated over vehicle mice, lower = stronger inhibition | activity ratio-of-ratios | 1.56 |
| CC(C)C[C@@H]1NC(=O)[C@H](C(C)C)NC(=O)[C@H](CCC(=O)O)NC(=O)CNC(=O)[C@H]([C@@H](C)O)NC(=O)[C@H](CCC(=O)O)NC(=O)[C@H](CCC(=O)O)NC(=O)[C@H](CC(=O)O)NC(=O)[C@H](C(C)C)NC(=O)[C@H]([C@@H](C)O)NC(=O)CNC(=O)[C@H](CC(=O)O)NC(=O)[C@@H]2CCCN2C1=O | KEAP1 | Keap1-Nrf2 binding, inhibitor, competitive FP | – | 0.3906 µM, 30 min, with: Nrf2 peptide probe | lower = stronger inhibition | fluorescence polarization | 0.197 a.u. |
| CC(C)C[C@H](NC(=O)[C@H]1O[C@@H]1C(=O)O)C(=O)NCCCCN=C(N)N | Cathepsin S (CTSS, Homo sapiens, UniProt P25774) | – | – | – | – | Hill slope | -1.33 |
| Cc1cc(C)cc(COc2cc3c(cc2OCc2cc(C)cc(C)c2)C2CC(O)(Cc4cn(CCOCCOCCOCCOc5cccc6c5C(=O)N(C5CCC(=O)NC5=O)C6=O)nn4)CC(C)N2CC3)c1 (racemic) | Rab GDP dissociation inhibitor beta (Homo sapiens, UniProt P50395) | degrader, Western blot | PC-3 | 2 µM, 24 h | – | degradation | 3% |
| O=C(N1CCCCC1)n1ccnn1 | GPI inositol-deacylase (Pgap1, Mus musculus, UniProt Q3UUQ7) | probe labelling, inhibitor, competitive ABPP-SILAC, refers to: Pgap1 | mouse T cells | concentration not given, 4 h, in situ, single peptide | baseline: treated over DMSO, lower = more inhibition | SILAC ratio | 0.37 and 0.29 |
| O=C(O)c1cccc(CP(=O)(O)O)n1 | Metallo-beta-lactamase type 2 (blaNDM-1, Klebsiella pneumoniae, UniProt C7C422) | enzyme activity, inhibitor | – | with: nitrocefin | – | koff | 0.21 ± 0.02 min⁻¹ |
| C#CCCCCOc1ccc2c(c1)CCCN2C(=O)CCl | NPC intracellular cholesterol transporter 1 (NPC1, Homo sapiens, UniProt O15118) | mass spectrometry profiling | H460 cell lysate | 100 µM over 10 µM, UniProt O15118 | baseline: high over low concentration | reactivity ratio | 1.4 |
| CC(=O)N[C@@H](CCC(N)=O)C(=O)N[C@@H](CC1CCCCC1)C(=O)N[C@@H](CNC(=O)CCl)C(=O)N[C@@H](CC(C)C)C(=O)N[C@@H](Cc1ccccc1)C(=O)O | Beta sliding clamp (Escherichia coli, UniProt P0A988, H175G) | isothermal titration calorimetry | – | 25 °C | – | ΔG | -8.3 kcal/mol |
| CC[C@H](C)[C@H](NC(=O)[C@H](CCCNC(=N)N)NC(=O)[C@H](CCCNC(=N)N)NC(=O)[C@H](CC(C)C)NC(=O)[C@H](Cc1ccccc1)NC(=O)CNC(=O)CNC(=O)[C@@H](N)Cc1ccc(O)cc1)C(=O)N[C@@H](CCCNC(=N)N)C(=O)N1CCC[C@H]1C(=O)N[C@@H](CCCCN)C(=O)N[C@@H](CC(C)C)C(=O)N[C@@H](CCCCN)C(=O)O | Probable G-protein coupled receptor 139 (GPR139, Homo sapiens, UniProt Q6DWJ6) | Gαi1 activation, agonist, BRET | HEK293T/17 | 40 µM | – | Emax | 64.2% |
| COc1ccccc1-c1n[nH]c2nc(N[C@H]3CC[C@H](NS(=O)(=O)CC(C)C)CC3)ncc12 | cdc2-related kinase 12 (Leishmania donovani, UniProt A0A3S7WQK2) | Kinobeads competition | Leishmania donovani extract | 10 µM, unit not given | baseline: vehicle | remaining binding | 0.06 |
| CCCCCC(=O)N[C@H]1CCSC1=O | sdiA | – | – | – | – | Emax | 113% |
| CCCCCCCCCC(=O)CC(=O)NC1CCCCC1=O (centres unmarked) | lasR | reporter gene, agonist | Pseudomonas aeruginosa PAO-JP2 | 100 µM, plasI-LVAgfp reporter | baseline: OdDHL at same concentration | agonist activity | 7% |

| SMILES | target | test | system | setting | how to read | endpoint | result |
| --- | --- | --- | --- | --- | --- | --- | --- |
| CN(C)[C@H]1C[C@@]23CC[C@@]4(O2)C(=CC[C@]2(C)[C@@H](c5ccc6ccncc6c5)CC[C@H]24)C=C3[C@@H](O)[C@@H]1O | Cyclin-dependent kinase 11B (CDK11B, Homo sapiens, UniProt P21127) | ATP probe labelling, inhibitor, KiNativ profiling | – | 0.1 µM | – | inhibition | -4.5% |
| CC(C)[C@@H]1NC(=O)[C@H](CCC(=O)O)NC(=O)CNC(=O)[C@H]([C@@H](C)O)NC(=O)[C@H](CCC(=O)O)NC(=O)[C@H](CCC(=O)O)NC(=O)[C@H](CC(=O)O)NC(=O)[C@H](C(C)C)NC(=O)[C@H]([C@@H](C)O)NC(=O)CNC(=O)[C@H](CC(=O)O)NC(=O)[C@H](CC(N)=O)NC(=O)[C@H](Cc2ccc(O)cc2)NC1=O | KEAP1 | Keap1-Nrf2 binding, inhibitor, competitive FP | – | 0.0244 µM, 30 min, with: Nrf2 peptide probe | lower = stronger inhibition | fluorescence polarization | 1.08 a.u. and 1.01 a.u. |
| O=C(Cc1cccc(Br)c1)N[C@H]1CCOC1=O | sdiA | – | – | – | – | Emax | 115% |
| CCCC[C@H]1CNCCN1C[C@@H]1CCCN1C[C@@H](Cc1ccc2ccccc2c1)N1CCN(CCC23CC4CC(CC(C4)C2)C3)[C@H](Cc2ccc(O)cc2)C1 | Oprm1 | radioligand binding | rat brain membranes | 500 nM, pH 7.5, 25 °C, with: 0.87 nM [3H]DAMGO | – | remaining binding | 93.2 ± 6.67% |
| CS(C)(=O)=Nc1ccc(-c2ccc(-c3nc4cc(O[C@@H]5CO[C@H]6[C@@H]5OC[C@H]6O)[nH]c4cc3F)cc2)cc1 | Neurotensin receptor type 1 (NTSR1, Homo sapiens, UniProt P30989) | calcium signal, antagonist | – | 10 µM | – | inhibition | 41% |
| O=C1NC(=O)c2c1c1cc(F)c[n+]3c1c1c2c2cc(O)ccc2[n]1[Ru-4]312([N]=C=S)[S+]3CC[S+]1CC[S+]2CC3 (centres unmarked) | Serine/threonine-protein kinase Nek2 (NEK2, Homo sapiens, UniProt P51955) | enzyme activity | – | 100 nM, human enzyme, with: 10 µM ATP | baseline: untreated | remaining activity | 80% |
| N[C@H](C(=O)N1CCCC1)C1CCN(c2nccc3c(-c4ncc(Cl)cc4Cl)cccc23)CC1 | Protein-arginine deiminase type-2 (PADI2, Homo sapiens, UniProt Q9Y2J8) | enzyme activity | – | 0.01573 µM, low-affinity site, with: Ca2+ 0.25 mM | – | kcat | 0.937 s⁻¹ and 0.953 s⁻¹ |
| CCCCCC(=O)CC(=O)N[C@H]1CCOC1=O | lasR | reporter gene, agonist | Escherichia coli JLD271 | 10 µM, pSC11 and pJN105L plasmids | baseline: OdDHL at same concentration | agonist activity | 61% |
| CC(C)[C@H]1NC(=O)C[C@H]2/C=C/CCSSC[C@@H](NC1=O)C(=O)N[C@H](Cc1cccc3ccccc13)C(=O)NCC(=O)O2 | Fibroblast growth factor receptor 2 (FGFR2, Homo sapiens, UniProt P21802) | enzyme activity, inhibitor | – | 10 µM | – | inhibition | 1.1% |
| CCOC(=O)[C@@H]1Cc2c(cc([N+](=O)[O-])cc2[N+](=O)[O-])[C@H](O)[C@]12C(=O)Nc1ccc(Br)cc12 | MAPK3 | binding, competition with immobilised ligand | – | 0.1 µM | – | remaining binding | 46% |
| C[C@@H](O)[C@@H]1CN([C@@H](CC2CCCCC2)CN2CCC[C@H]2CN2CCNC[C@@H]2CO)CCN1CCCC1CCCC1 | Oprm1 | radioligand binding | rat brain membranes | 500 nM, pH 7.5, 25 °C, with: 0.87 nM [3H]DAMGO | – | remaining binding | 109 ± 6.97% |
| CN(C)CCCSC(=S)N1CCN(C(=O)/C=C/c2coc3ccccc3c2=O)CC1 | Nucleoprotein (N, Tomato spotted wilt virus, UniProt P25999, R94A) | binding, microscale thermophoresis | – | 15.62 µM | dose series | MST response | 843 a.u. |
| O=C(Cc1ccc(Br)cc1)N[C@H]1CCOC1=O | lasR | reporter gene, agonist | Escherichia coli JLD271 | 10 µM, pSC11 and pJN105L plasmids | baseline: OdDHL at same concentration | agonist activity | 2% |
| O=C(CCCOc1cccc(Br)c1)N[C@H]1CCSC1=O | sdiA | – | – | – | – | Emax | 122% |
| CN1CCCN(C(=O)c2ccc(S(=O)(=O)F)cc2)c2ccccc21 | Uncharacterized hydrolase SAUSA300_2518 | enzyme activity, inhibitor, fluorogenic substrate | – | 0.05 µM | – | remaining activity | 110% and 109% |
| [CH3][Ti+2][O]C(=O)c1ccc([S][Au][PH](c2ccccc2)(c2ccccc2)c2ccccc2)cc1.c1cc[cH-]c1.c1cc[cH-]c1 | MAPK3 | kinase activity, HotSpot kinase | – | 1 µM, with: ATP 10 µM | – | remaining activity | 112% and 114% |
